Experimental data pooled from the literature.
Compare with care: the assays were run in different laboratories. Values joined by “and” are separate records of one study, mostly repeats; a detail may differ. ± marks the error that the study gave.

O=C(O)CCCOc1ccc([18F])cc1-c1cc(-c2ccccc2C(F)(F)F)n(-c2ccccc2)n1
tissue uptake (mice, large intestine; intravenous, 180 min): 2.62 ± 0.49 %ID/g

CCCC[C@H](NC(=O)CCCCCCCNC(=O)CN1CCN(CC(=O)O)CCN(CC(=O)O)CC1)C(=O)N[C@H]1CC(=O)NCCCC[C@@H](C(N)=O)NC(=O)[C@H](Cc2c[nH]c3ccccc23)NC(=O)[C@H](CCCNC(=N)N)NC(=O)[C@@H](Cc2ccccc2)NC(=O)[C@H](Cc2c[nH]cn2)NC1=O [fluorine-18 labelled]
tissue uptake (C57 mice B16-F10 melanoma, tumor; intravenous, 0.37 MBq, 2 h): 7.07 ± 0.95 %ID/g

N#C[C@@H]1CCCN1C(=O)CNC(=O)c1ccnc2ccc(OCCCN3CCN(C(=O)CCc4ccc(O)c(CN5CCN6CC(=O)[O][Al-]([18F])([O]C(=O)C5)[O]c5ccc(CCC(=O)N7CCN(CCCOc8ccc9nccc(C(=O)NCC(=O)N%10CCC[C@H]%10C#N)c9c8)CC7)cc5C6)c4)CC3)cc12 (stereo partly drawn)
tissue uptake (BALB/c nude mice, U-87 MG xenograft, heart; 2 h): 1.48 ± 0.26 %ID/g

Cc1cc(C)n(CCN(CCN)CCCCCCNC(=O)[C@@H](N)Cc2c[nH]cn2)n1.[99Tc+].[C-]#[O+].[C-]#[O+].[C-]#[O+]
tissue uptake (BALB/c nude mice, A549 xenograft, tumor; intravenous, 24 h): 0.76 ± 0.12 %IA/g

CCCC[C@H](NC(=O)CNC(=O)CNC(=O)[C@H](CCCCNC(=O)[C@H](CC(=O)O)NC(=O)C(C)c1ccc(CC(C)C)cc1)NC(=O)CN1CCN(CC(=O)O)CCN(CC(=O)O)CCN(CC(=O)O)CC1)C(=O)N[C@H]1CC(=O)NCCCC[C@@H](C(N)=O)NC(=O)[C@H](Cc2c[nH]c3ccccc23)NC(=O)[C@H](CCCNC(=N)N)NC(=O)[C@@H](Cc2ccccc2)NC(=O)[C@H](Cc2c[nH]cn2)NC1=O (stereo partly drawn) [lutetium-177 labelled]
tissue uptake (C57 mice, tumour-bearing, heart; intravenous, 0.037 MBq, 4 h): 0.27 ± 0.09 %ID/g

O=C(NCC1OC2CCC=CCCC2O1)c1ccc([18F])nc1 (stereo not drawn)
tissue uptake (female BALB/c nude mice, LS174T tumour, bone; intravenous, 60 min, with: unmodified CC49 24 h before): 0.9 ± 0.3 %ID/g

CC(C)C[C@H](NC(=O)[C@@H](CCCCNC(=O)[C@@H](Cc1ccccc1)NC(=O)CCCCCCCNC(=O)CN1CCN(CC(=O)O)CCN(CC(=O)O)CCN(CC(=O)O)CC1)NC(=O)[C@H](Cc1ccc(O)cc1)NC(=O)[C@H](CO)NC(=O)[C@H](Cc1c[nH]c2ccccc12)NC(=O)[C@H](Cc1c[nH]cn1)NC(=O)[C@@H]1CCC(=O)N1)C(=O)N[C@@H](CCCNC(=N)N)C(=O)N1CCC[C@H]1C(=O)NCC(N)=O [indium-111 labelled]
tissue uptake (male athymic nude mice, DU-145 prostate cancer xenograft, blood; intravenous, 0.037 MBq, 0.5 h): 1.47 ± 0.42 %ID/g

O=C(NCC1OC2CCC=CCCC2O1)c1ccc(COCCOCCOCC[18F])cc1 (stereo not drawn)
tissue uptake (healthy female BALB/c nude mice, bladder; intravenous, 7.4 MBq per mouse, 15 min): 4.5 ± 0.4 %ID/g

COc1ccc(Nc2nc(Nc3ccc(OCCOCC[18F])cc3)ncc2Br)cc1
tissue uptake (ICR mice, S180 tumour-bearing, spleen; intravenous, 370 kBq, 60 min): 1.93 ± 0.04 %ID/g

O=C([O-])CN1CCN(CC(=O)[O-])CCN(CC(=O)NC[C@H]2CC[C@H](C(=O)N[C@H](Cc3cnc4ccccc4c3)C(=O)NCCCC[C@H](NC(=O)N[C@@H](CCC(=O)O)C(=O)O)C(=O)O)CC2)CCN(CC(=O)[O-])CC1.[64Cu+2]
tissue uptake (ex vivo gamma counting; 22Rv1 tumour-bearing mice, tumor; intravenous, 0.74 MBq, 1 h post-injection): 13.1 %ID/g

N#C[C@@H]1CCCN1C(=O)CNC(=O)c1ccnc2ccc(OCCCN3CCN(C(=O)CCc4ccc5c(c4)CN4CCN6CC(=O)[O][68Ga-]([O]C(=O)C4)([O]5)[O]c4ccc(CCC(=O)N5CCN(CCCOc7ccc8nccc(C(=O)NCC(=O)N9CCC[C@H]9C#N)c8c7)CC5)cc4C6)CC3)cc12
tissue uptake (BALB/c nude mice, U-87 MG xenograft, heart; 1 h): 1.05 ± 0.14 %ID/g

CCCC[C@H](NC(=O)COCCOCCNC(=O)CN1CCN(CC(=O)O)CCN(CC(=O)O)CC1)C(=O)N[C@H]1CC(=O)NCCCC[C@@H](C(N)=O)NC(=O)[C@H](Cc2c[nH]c3ccccc23)NC(=O)[C@H](CCCNC(=N)N)NC(=O)[C@@H](Cc2ccccc2)NC(=O)[C@H](Cc2c[nH]cn2)NC1=O [fluorine-18 labelled]
tissue uptake (C57 mice B16-F10 melanoma, pancreas; intravenous, 0.37 MBq, 0.5 h): 0.28 ± 0.05 %ID/g

COc1ccc2c(c1)C(C)(C)C(/C=C/C1=C(Oc3ccc(C(=O)NCCCCOc4cc(CN(Cc5ccccn5)Cc5ccccn5)cc(CN(Cc5ccccn5)Cc5ccccn5)c4)cc3)C(=C/C=C3/N(CCCCS(=O)(=O)[O-])c4ccc(OC)cc4C3(C)C)CCC1)=[N+]2CCCCS(=O)(=O)[O-].O=[N+]([O-])[O-].O=[N+]([O-])[O-].[99Tc+].[C-]#[O+].[C-]#[O+].[C-]#[O+].[Zn+2]
tissue uptake (BALB/c mice, S. aureus myositis, stomach with contents; 12 h post-injection): 0.51 %ID/g and 1.58 %ID/g and 0.57 %ID/g and 2.32 %ID/g

N#C[C@@H]1CCCN1C(=O)CNC(=O)c1ccnc2ccc(OCCCN3CCN(C(=O)CCc4ccc5c(c4)CN4CCN(Cc6cc(CCC(=O)O)ccc6O)CC(=O)[O][Al-]([18F])([O]C(=O)C4)[O]5)CC3)cc12 (stereo partly drawn)
tissue uptake (BALB/c nude mice, U-87 MG xenograft, muscle; 1 h, blocking, with: DOTA-FAPI-04 40 nmol/mouse co-injected): 0.33 ± 0.07 %ID/g

CCCC[C@H](NC(=O)CNC(=O)CNC(=O)[C@H](CCCCNC(=O)C(C)c1ccc(CC(C)C)cc1)NC(=O)CN1CCN(CC(=O)O)CCN(CC(=O)O)CCN(CC(=O)O)CC1)C(=O)N[C@H]1CC(=O)NCCCC[C@@H](C(N)=O)NC(=O)[C@H](Cc2c[nH]c3ccccc23)NC(=O)[C@H](CCCNC(=N)N)NC(=O)[C@@H](Cc2ccccc2)NC(=O)[C@H](Cc2c[nH]cn2)NC1=O (stereo partly drawn) [lutetium-177 labelled]
tissue uptake (C57 mice, tumour-bearing, skin; 2 h): 1.35 ± 0.25 %ID/g

For quick reference, copied from above:
COc1ccc2c(c1)C(C)(C)C(/C=C/C1=C(Oc3ccc(C(=O)NCCCCOc4cc(CN(Cc5ccccn5)Cc5ccccn5)cc(CN(Cc5ccccn5)Cc5ccccn5)c4)cc3)C(=C/C=C3/N(CCCCS(=O)(=O)[O-])c4ccc(OC)cc4C3(C)C)CCC1)=[N+]2CCCCS(=O)(=O)[O-].O=[N+]([O-])[O-].O=[N+]([O-])[O-].[99Tc+].[C-]#[O+].[C-]#[O+].[C-]#[O+].[Zn+2]
tissue uptake (BALB/c mice, S. aureus myositis, stomach with contents; 12 h post-injection): 0.51 %ID/g and 1.58 %ID/g and 0.57 %ID/g and 2.32 %ID/g
